Measurements collected from several papers.
Protocols differ between the studies behind these lines. Numbers after ± are the reported error.

CC1=C2[O][Ru-]([Cl])[O+]=C2C=CN1CCCN1C=CC2=[O+][Ru-]([Cl])[O]C2=C1C.Cc1ccc(C(C)C)cc1.Cc1ccc(C(C)C)cc1 — pKa (NMR pD titration): 9.7 ± 0.03
O=c1[nH]c(-c2nsc3ccccc23)no1 — pKa (potentiometric titration; 0.15 M KCl; Yasuda-Shedlovsky extrapolation): 4.5
O=S(=O)([O-])CCCSCCCN(CCCSCCCS(=O)(=O)[O-])CCCSCCCS(=O)(=O)[O-].[Na+].[Na+].[Na+] — pKa (potentiometric or spectrophotometric titration; ionic strength 0.1): 9.09
O=c1c(-c2ccccc2)c[nH]n1-c1ccccn1 — pKa (spectrophotometry; water): 6
C#CCN1CCN(C(=O)c2cc(Cc3n[nH]c(=O)c4ccccc34)ccc2F)CC1 — pKa (experimental): 4.48 ± 0.06
O=C(NC1CCCCN=CC1=O)OCc1ccccc1 (stereo not shown) — pKa (13C NMR titration): ~6.2
O=c1[nH]c(-c2noc3ccccc23)no1 — pKa (potentiometric titration; 0.15 M KCl; Yasuda-Shedlovsky extrapolation): 3.74
COC(=O)c1ccccc1-c1c2ccc(=O)cc-2oc2c1ccc1cccc(O)c12 — pKa (UV absorption spectra; water with 10% DMSO; hydroxyl group): 7.72
COc1ccc2cc(-c3ccc(-c4ccc(C)cn4)nc3)oc2c1 — pKa (pH titration; conjugate acid of ligand): 4.3
Br.Br.Br.O=c1c(O)cccn1CCN1CCN(CCn2cccc(O)c2=O)CCN(CCn2cccc(O)c2=O)CC1 — pKa (potentiometric titration; hydroxypyridinone group; pKa2): 5.7
O=c1[nH]c(-c2n[nH]c3ccccc23)no1 — pKa (potentiometric titration; 0.15 M KCl; Yasuda-Shedlovsky extrapolation): 4.73
Cc1ccccc1-c1cc(N2CCN(Cc3ccccc3)CC2)ccc1N(C)C(=O)C(C)(C)c1cc(C(F)(F)F)cc(C(F)(F)F)c1 — pKa (potentiometric titration; 67% methanol in water): 6.17
Cc1sc2c(c1C)C(c1ccc(Cl)cc1)=N[C@@H](CC(=O)NCCCN1CCN(CCCNc3cccc4c3C(=O)N(C3CCC(=O)NC3=O)C4=O)CC1)c1nnc(C)n1-2 (stereo partly shown) — pKa (experimental): 4.69 ± 0.14
CCC(=O)N1CCN(c2ccc(N(C)C(=O)C(C)(C)c3cc(C(F)(F)F)cc(C(F)(F)F)c3)c(-c3ccccc3C)c2)CC1 — pKa (potentiometric titration; 67% methanol in water): < 3
CC(C)C[C@H](NC(=O)[C@H](CCC1CCCCC1)NC(=O)[C@@H]1CCCN1C(=O)c1ccc(F)cc1)C(=O)NC(C)(C)C(=O)N[C@@H](CC(C)C)C(=O)N[C@@H](CC(C)C)C(=O)NC(C)(C)C(=O)NC(C)(C)C(=O)NCCC(=O)NC1(CN(C)C)CCC1 — pKa (potentiometric titration; methanol-water 1:4, NaCl 150 mM; terminal amine): 7.3
CCCC[C@H](NC(=O)[C@H](CC(C)C)N(C)C(=O)CNC(=O)[C@@H](NC(=O)[C@H](Cc1ccccc1)NC(=O)[C@H](CCCCN)NC(=O)[C@@H](N)CC(=O)O)C(C)C)C(N)=O — pKa (potentiometric titration; second pKa): 7.71 ± 0.07
CC1=C2[O][Ru-]([Cl])[O+]=C2C=CN1CCCCCCN1C=CC2=[O+][Ru-]([Cl])[O]C2=C1C.Cc1ccc(C(C)C)cc1.Cc1ccc(C(C)C)cc1 — pKa (NMR pD titration): 9.6 ± 0.02
Cc1ccccc1-c1cc(N2CCN(C(=O)[C@@H](N)CCCNC(=N)N)CC2)ccc1N(C)C(=O)C(C)(C)c1cc(C(F)(F)F)cc(C(F)(F)F)c1 — pKa (potentiometric titration; 67% methanol in water): > 10
Cc1ccc(-c2ccc(-c3cc4sccc4o3)cn2)nc1 — pKa (pH titration; conjugate acid of ligand): 4.3

Some of these lines once more:
CCCC[C@H](NC(=O)[C@H](CC(C)C)N(C)C(=O)CNC(=O)[C@@H](NC(=O)[C@H](Cc1ccccc1)NC(=O)[C@H](CCCCN)NC(=O)[C@@H](N)CC(=O)O)C(C)C)C(N)=O — pKa (potentiometric titration; second pKa): 7.71 ± 0.07
CC1=C2[O][Ru-]([Cl])[O+]=C2C=CN1CCCCCCN1C=CC2=[O+][Ru-]([Cl])[O]C2=C1C.Cc1ccc(C(C)C)cc1.Cc1ccc(C(C)C)cc1 — pKa (NMR pD titration): 9.6 ± 0.02
